Assay results from different studies.
Numbered parts are unrelated; each lists some results of a single study. Values joined by “and” are separate records of one study, mostly repeats; a detail may differ.
Sequence of UniProt Q06187 (whole entry, looked up): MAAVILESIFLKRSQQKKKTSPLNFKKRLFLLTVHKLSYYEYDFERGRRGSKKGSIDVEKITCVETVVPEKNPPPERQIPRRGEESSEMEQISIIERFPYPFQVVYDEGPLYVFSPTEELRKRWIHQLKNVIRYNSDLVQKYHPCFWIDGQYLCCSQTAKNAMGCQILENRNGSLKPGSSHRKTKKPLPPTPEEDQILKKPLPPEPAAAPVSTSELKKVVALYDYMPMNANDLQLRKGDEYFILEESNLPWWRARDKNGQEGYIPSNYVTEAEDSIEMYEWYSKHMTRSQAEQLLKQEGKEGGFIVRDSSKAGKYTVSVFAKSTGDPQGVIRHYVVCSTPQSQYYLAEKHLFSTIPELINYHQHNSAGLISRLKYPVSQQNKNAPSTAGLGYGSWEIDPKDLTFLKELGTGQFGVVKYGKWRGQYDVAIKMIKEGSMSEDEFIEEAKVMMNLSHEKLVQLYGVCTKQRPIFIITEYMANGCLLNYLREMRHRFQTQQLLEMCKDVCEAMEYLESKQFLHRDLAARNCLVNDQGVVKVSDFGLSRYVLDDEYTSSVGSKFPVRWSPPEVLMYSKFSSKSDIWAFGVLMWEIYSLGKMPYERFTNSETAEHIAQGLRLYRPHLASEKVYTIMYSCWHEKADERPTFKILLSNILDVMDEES

Set 1 — read-out: cell-free assay; technique: competition with immobilised ligand; tested at: 1 µM
SMILES: COc1ccc2c(c1)O[C@@H](c1ccc(OC)c(OC)c1)C[C@H]2NC(=O)C1(c2ccc3c(c2)OC(F)(F)O3)CC1
target | remaining binding [%]
CSNK1E (Homo sapiens, UniProt P49674) | 100
COQ8B (Homo sapiens, UniProt Q96D53) | 100
MET (Homo sapiens, UniProt P08581, Y1235D) | 100
SRPK1 (Homo sapiens, UniProt Q96SB4) | 95
TBK1 (Homo sapiens, UniProt Q9UHD2) | 86
PIK3CG (Homo sapiens, UniProt P48736) | 74
NEK9 (Homo sapiens, UniProt Q8TD19) | 100
NEK5 (Homo sapiens, UniProt Q6P3R8) | 71
CLK4 (Homo sapiens, UniProt Q9HAZ1) | 100
FLT3 (Homo sapiens, UniProt P36888, ITD) | 100
STK36 (Homo sapiens, UniProt Q9NRP7) | 100
MKNK1 (Homo sapiens, UniProt Q9BUB5) | 78
VRK2 (Homo sapiens, UniProt Q86Y07) | 67
AKT2 (Homo sapiens, UniProt P31751) | 100
EPHB1 (Homo sapiens, UniProt P54762) | 87
PIK3CA (Homo sapiens, UniProt P42336, E545K) | 77

Set 2 — read-out: enzyme activity; action: inhibitor; tested at: 0.5 µM; relative to: control
Target: Serine/threonine-protein kinase PAK 5 (PAK5, Homo sapiens, UniProt Q9P286)
Sequence of UniProt Q9P286 (whole entry, looked up): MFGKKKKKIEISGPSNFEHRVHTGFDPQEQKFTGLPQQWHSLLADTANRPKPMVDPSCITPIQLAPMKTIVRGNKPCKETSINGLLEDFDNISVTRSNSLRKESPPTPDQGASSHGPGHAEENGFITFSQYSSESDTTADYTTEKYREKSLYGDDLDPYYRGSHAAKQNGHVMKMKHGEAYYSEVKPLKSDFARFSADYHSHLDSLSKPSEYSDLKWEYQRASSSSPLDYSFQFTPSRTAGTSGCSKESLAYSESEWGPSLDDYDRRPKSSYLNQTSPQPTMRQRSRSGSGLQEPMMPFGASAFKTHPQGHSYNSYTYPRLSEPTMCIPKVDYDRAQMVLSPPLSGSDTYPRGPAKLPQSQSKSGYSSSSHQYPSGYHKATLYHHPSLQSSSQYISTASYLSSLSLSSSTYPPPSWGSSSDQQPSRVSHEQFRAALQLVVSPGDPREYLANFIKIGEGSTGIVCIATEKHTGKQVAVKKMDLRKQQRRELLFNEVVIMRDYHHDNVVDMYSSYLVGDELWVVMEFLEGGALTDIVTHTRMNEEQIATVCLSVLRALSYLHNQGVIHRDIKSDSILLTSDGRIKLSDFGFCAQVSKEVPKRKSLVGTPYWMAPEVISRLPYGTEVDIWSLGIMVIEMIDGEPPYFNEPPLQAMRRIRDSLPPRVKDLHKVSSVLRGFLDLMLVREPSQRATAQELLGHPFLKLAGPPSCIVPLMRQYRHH
SMILES | remaining activity [%]
NC(=O)c1ccc(-c2nc(-c3ccc4c(c3)OCCO4)c(-c3ccccn3)[nH]2)cc1 | 98.8
O=Nc1c(-c2c(O)[nH]c3ccccc23)[nH]c2ccccc12 | 89.3
COc1cc2c(N3CCN(C(=O)Nc4ccc(OC(C)C)cc4)CC3)ncnc2cc1OCCCN1CCCCC1 | 87.5
C[C@@H](N)[C@H]1CC[C@H](C(=O)Nc2ccncc2)CC1 | 85.7
NC(=O)c1cccc(-c2cc(Nc3ccc(OC(F)(F)F)cc3)ncn2)c1 | 88.1
c1cc(-c2cnn3cc(-c4ccc(OCCN5CCCCC5)cc4)cnc23)ccn1 | 93.2
FC(F)(F)c1ccc(/C=C/c2nc(COc3ccc(CCCCn4ccnn4)cc3)co2)cc1 | 89.4
COc1cc2c(Nc3ccc(Br)cc3F)ncnc2cc1OCC1CCN(C)CC1 | 93.5
CC(C)n1cnc2c(Nc3cccc(Cl)c3)nc(NCCO)nc21 | 80.4
Clc1ccc(Nc2nnc(Cc3ccncc3)c3ccccc23)cc1 | 97.1
CCCCc1c(-c2ccc(O)cc2)[nH]c2nccnc12 | 82.9
N#C/C(=C(/N)SC1C=CC=CC1)c1cccc(C(O)c2ccncc2)c1 (stereo not drawn) | 100
O=C(O)/C=C/c1cc(Br)c(Br)c(Br)c1Br | 90.6
CC(C)N(CCC(=O)c1ccc2ccccc2c1)Cc1ccccc1 | 98.5
O=C(c1ccccc1)c1ccc(N2CCOCC2)cc1O | 99.2
O=c1c(-c2ccc(F)cc2)c(-c2ccncc2)[nH]n1-c1ccc(Cl)cc1 | 86.3
CC(C)(C)c1nc2c3cc[nH]c(=O)c3c3cc(F)ccc3c2[nH]1 | 90.5
CNc1cc2c(Nc3cccc(Br)c3)ncnc2cn1 | 90.8
CCN(CC)CCCCN1c2ccccc2Oc2ccc(Cl)cc21 | 116
N#CC(c1ccnc(NCCc2cccnc2)n1)c1nc2ccccc2s1 (stereo not drawn) | 98.9
O=C1NC(=O)/C(=C/c2ccc3c(c2)OC(F)(F)O3)S1 | 93
Nc1nc(Nc2ccc(S(N)(=O)=O)cc2)nn1C(=S)Nc1c(F)cccc1F | 43.8
O=C1c2ccccc2-c2nc3nnnn3nc21 | 93.4

Set 3 — tested at: 1 µM
SMILES: Cc1ccc(NC(=O)c2ccnc(C(F)(F)F)c2)cc1-c1cc(OCCO)nc(N2CCOCC2)c1
target | assay | remaining binding [%]
STK26 (Homo sapiens, UniProt Q9P289) | binding, competition with immobilised ligand | 85
SRMS (Homo sapiens, UniProt Q9H3Y6) | binding, competition with immobilised ligand | 92
MAPK10 (Homo sapiens, UniProt P53779) | binding | 90
RET (Homo sapiens, UniProt P07949) | binding, competition with immobilised ligand | 92
EGFR (Homo sapiens, UniProt P00533) | binding, competition with immobilised ligand | 67
EPHB4 (Homo sapiens, UniProt P54760) | binding, competition with immobilised ligand | 87
TAOK1 (Homo sapiens, UniProt Q7L7X3) | binding, competition with immobilised ligand | 95
ABL1 (Homo sapiens, UniProt P00519, F317L) | – | 100
FLT3 (Homo sapiens, UniProt P36888, K663Q) | binding | 98
BTK (Homo sapiens, UniProt Q06187) | binding, competition with immobilised ligand | 87
FLT3 (Homo sapiens, UniProt P36888, D835Y) | binding | 100

Set 4 — read-out: enzyme activity; action: inhibitor; tested at: 77 µM; relative to: untreated
Target: DNA polymerase theta, ATPase domain (POLQ, Homo sapiens, UniProt O75417)
Sequence of UniProt O75417 (whole entry, unmodified, looked up): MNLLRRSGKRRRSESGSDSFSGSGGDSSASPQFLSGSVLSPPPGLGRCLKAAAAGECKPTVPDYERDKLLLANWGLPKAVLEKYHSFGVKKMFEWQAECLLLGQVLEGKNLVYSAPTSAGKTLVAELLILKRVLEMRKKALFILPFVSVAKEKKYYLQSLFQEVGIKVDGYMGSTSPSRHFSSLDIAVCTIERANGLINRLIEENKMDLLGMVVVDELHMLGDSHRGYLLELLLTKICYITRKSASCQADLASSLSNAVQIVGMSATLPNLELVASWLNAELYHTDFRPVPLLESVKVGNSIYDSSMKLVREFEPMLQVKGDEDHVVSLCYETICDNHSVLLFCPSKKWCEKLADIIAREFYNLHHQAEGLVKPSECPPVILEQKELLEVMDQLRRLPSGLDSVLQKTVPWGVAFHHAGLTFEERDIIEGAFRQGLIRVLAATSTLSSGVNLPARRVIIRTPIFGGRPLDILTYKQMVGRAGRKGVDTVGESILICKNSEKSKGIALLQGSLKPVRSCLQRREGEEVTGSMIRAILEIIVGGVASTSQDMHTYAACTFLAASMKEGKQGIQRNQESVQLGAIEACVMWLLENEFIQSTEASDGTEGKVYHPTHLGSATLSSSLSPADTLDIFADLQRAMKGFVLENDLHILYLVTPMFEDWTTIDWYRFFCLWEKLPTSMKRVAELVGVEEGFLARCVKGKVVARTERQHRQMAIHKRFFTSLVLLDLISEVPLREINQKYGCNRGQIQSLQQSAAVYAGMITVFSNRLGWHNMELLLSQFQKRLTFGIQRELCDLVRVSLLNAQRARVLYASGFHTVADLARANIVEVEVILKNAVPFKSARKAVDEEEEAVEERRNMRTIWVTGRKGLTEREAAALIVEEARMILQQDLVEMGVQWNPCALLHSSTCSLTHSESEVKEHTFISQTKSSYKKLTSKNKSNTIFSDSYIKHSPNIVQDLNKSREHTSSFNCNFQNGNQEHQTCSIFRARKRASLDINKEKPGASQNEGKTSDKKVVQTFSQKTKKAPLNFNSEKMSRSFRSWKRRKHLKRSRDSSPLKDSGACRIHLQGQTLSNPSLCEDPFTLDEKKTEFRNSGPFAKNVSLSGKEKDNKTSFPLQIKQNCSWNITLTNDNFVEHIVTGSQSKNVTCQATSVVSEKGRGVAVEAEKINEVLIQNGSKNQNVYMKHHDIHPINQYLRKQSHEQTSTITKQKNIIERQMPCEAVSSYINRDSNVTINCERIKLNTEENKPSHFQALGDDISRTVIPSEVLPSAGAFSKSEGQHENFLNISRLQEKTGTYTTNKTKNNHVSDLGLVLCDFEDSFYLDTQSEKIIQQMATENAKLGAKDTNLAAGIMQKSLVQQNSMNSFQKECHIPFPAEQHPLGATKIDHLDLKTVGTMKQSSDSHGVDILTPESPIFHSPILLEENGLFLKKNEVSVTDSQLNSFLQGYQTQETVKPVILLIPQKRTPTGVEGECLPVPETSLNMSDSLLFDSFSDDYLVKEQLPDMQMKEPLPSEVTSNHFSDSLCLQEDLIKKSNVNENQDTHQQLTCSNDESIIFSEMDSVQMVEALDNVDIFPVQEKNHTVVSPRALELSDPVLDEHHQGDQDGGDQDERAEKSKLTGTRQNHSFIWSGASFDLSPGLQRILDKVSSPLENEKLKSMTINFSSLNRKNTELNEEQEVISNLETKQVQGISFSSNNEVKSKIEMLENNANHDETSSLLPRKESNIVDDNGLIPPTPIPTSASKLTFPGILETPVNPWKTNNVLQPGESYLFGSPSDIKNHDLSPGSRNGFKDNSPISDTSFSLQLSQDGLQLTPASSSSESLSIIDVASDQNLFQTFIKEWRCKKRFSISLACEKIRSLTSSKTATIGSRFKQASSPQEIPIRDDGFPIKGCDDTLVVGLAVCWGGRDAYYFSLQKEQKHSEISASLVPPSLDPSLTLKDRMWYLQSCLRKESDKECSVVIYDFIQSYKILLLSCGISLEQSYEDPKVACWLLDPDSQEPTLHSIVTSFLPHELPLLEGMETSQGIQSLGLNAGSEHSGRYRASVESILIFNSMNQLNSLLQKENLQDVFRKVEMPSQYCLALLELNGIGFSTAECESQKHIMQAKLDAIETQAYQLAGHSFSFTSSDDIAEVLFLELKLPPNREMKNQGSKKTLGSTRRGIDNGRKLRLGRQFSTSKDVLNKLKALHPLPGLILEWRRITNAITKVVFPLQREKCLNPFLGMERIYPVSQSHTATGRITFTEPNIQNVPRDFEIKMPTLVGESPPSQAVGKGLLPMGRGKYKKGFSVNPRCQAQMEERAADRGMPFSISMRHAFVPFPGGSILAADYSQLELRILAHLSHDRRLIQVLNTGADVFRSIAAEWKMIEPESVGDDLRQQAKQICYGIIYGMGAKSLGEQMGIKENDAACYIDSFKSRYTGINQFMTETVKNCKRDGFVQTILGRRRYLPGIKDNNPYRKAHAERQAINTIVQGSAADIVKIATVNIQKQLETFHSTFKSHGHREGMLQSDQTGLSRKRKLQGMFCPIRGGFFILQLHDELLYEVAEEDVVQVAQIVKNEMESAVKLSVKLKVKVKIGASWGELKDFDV
Compound | remaining activity
Nc1c(CC(=O)O)cccc1C(=O)c1ccc(Br)cc1 | 94.5%
CCCCc1nc2cc(/C=C/C(=O)NO)ccc2n1CCN(CC)CC | 97.8%
CN1CCN(C2CCN(C(=O)Nc3cc(Oc4ccc(NC(=O)C5(C(=O)Nc6ccc(F)cc6)CC5)c(F)c4)ccn3)CC2)CC1 | 101%
C/C(=C\C(=O)OCCCCCCCCC(=O)O)C[C@@H]1OC[C@H](C[C@@H]2O[C@H]2[C@@H](C)[C@H](C)O)[C@@H](O)[C@H]1O | 95.1%
C[C@@]12C[C@@]3(O)O[C@@H](O1)[C@]1(COC(=O)c4ccccc4)[C@H]3C[C@@]12O[C@@H]1O[C@H](CO)[C@@H](O)[C@H](O)[C@H]1O | 90.5%
O=C(/C=C/c1ccc(CN(CCO)CCc2c[nH]c3ccccc23)cc1)NO | 106%
NC(=O)c1ccccc1 | 96.2%
CC(C)N(CC[C@H](c1ccccc1)c1cc(CO)ccc1O)C(C)C | 101%
CC(=O)[C@@]1(O)CC[C@H]2[C@@H]3CCC4=CC(=O)CCC4=C3[C@@H](c3ccc(N(C)C)cc3)C[C@@]21C | 97.4%
CN[C@H](CC(=O)O)C(=O)O | 101% and 78.2%
CC(C)(C)NCC(O)COc1cccc2c1C[C@H](O)[C@H](O)C2 (mixture of isomers) | 112%
CCOC(=O)C(C)(C)Oc1ccc(Cl)cc1 | 99.4%
CCCCCC[C@@H]([C@@H](C)O)n1cnc2c(N)ncnc21 | 101%
CCCC(=O)O[C@]1(C(=O)COC(C)=O)CC[C@H]2[C@@H]3C[C@H](F)C4=CC(=O)C=C[C@]4(C)[C@@]3(F)[C@@H](O)C[C@@]21C | 102%
COc1cc2ncnc(Nc3ccc(O)c(Br)c3)c2cc1OC | 104%
COc1ccc2c3c([nH]c2c1)[C@H]1C[C@H]2[C@H](C[C@@H](O)[C@H](OC)[C@H]2C(=O)O)CN1CC3 | 104%
C1CCC(C(CC2CCCCN2)C2CCCCC2)CC1 (stereo not drawn) | 108%
Cn1nc2c3c(cccc31)C(=O)c1ccccc1-2 | 113%
O=C1c2ccccc2-c2n[nH]c3cccc1c23 | 73.1%

Repeated from above (set 2):
SMILES | remaining activity [%]
CC(C)(C)c1nc2c3cc[nH]c(=O)c3c3cc(F)ccc3c2[nH]1 | 90.5
CNc1cc2c(Nc3cccc(Br)c3)ncnc2cn1 | 90.8
CCN(CC)CCCCN1c2ccccc2Oc2ccc(Cl)cc21 | 116
N#CC(c1ccnc(NCCc2cccnc2)n1)c1nc2ccccc2s1 (stereo not drawn) | 98.9
O=C1NC(=O)/C(=C/c2ccc3c(c2)OC(F)(F)O3)S1 | 93
